# Results of several laboratories.
# Parts stem from different laboratories: compare values within a part only. Positions count from the first letter of the parent shown.

# Sample 1 — method: aptamer microarray, sandwich; molecule type: DNA with 2'F-ANA; medium: in vitro; concentration: 200 nM; added: Cy3 exosite-II aptamer, 400 nM; reading: higher = stronger binding; strand: GGTTGGTGTGGTTGG
# Target: Prothrombin, mature alpha-thrombin (F2, Homo sapiens, UniProt P00734)
# Notes: whole 15-mer aptamer, many near background
Modification,mean fluorescence intensity
2'F-ANA at 1 2 3 4 5 6 8 9 10 12 13 14,55.6 a.u.
2'F-ANA at 1 3 4 5 8,59.7 a.u.
2'F-ANA at 4 6 8 9 10 11 13 14 15,55.4 a.u.
2'F-ANA at 2 3 6 8 9 11 12 13,696 a.u.
2'F-ANA at 1 3 4 6 8 13 14 15,65.7 a.u.
2'F-ANA at 5 6 9 11 12,123 a.u.
2'F-ANA at 4 5 6 7 10 15,46.1 a.u.
2'F-ANA at 1 3 5 7 8 9 10 13,42.9 a.u.
2'F-ANA at 1 3 4 5 9 10 11 13 15,56.9 a.u.
2'F-ANA at 4 7 8 9 12,604 a.u.
2'F-ANA at 2 3 5 7 8 11 12 13 14,59 a.u.
2'F-ANA at 3 4 5 6 7 9 12 15,214 a.u.
2'F-ANA at 4 7 11 12 13 14 15,103 a.u.
2'F-ANA at 1 6 7 10 12 13 14 15,53 a.u.
2'F-ANA at 3 4 10 11 12 13 15,321 a.u.
2'F-ANA at 2 4 6 8 9 13 14 15,72.2 a.u.
2'F-ANA at 1 2 4 7 8 9,161 a.u.
2'F-ANA at 2 3 5 7 9 11 12 13 15,120 a.u.
2'F-ANA at 2 4 5 6 7 12 14,49.4 a.u.
2'F-ANA at 1 4 6 7 8 11 14 15,58.4 a.u.
2'F-ANA at 1 2 3 4 7 8 11 13 14,75.3 a.u.
2'F-ANA at 1 3 5 7 8 9 10 12 13 14 15,51.7 a.u.
2'F-ANA at 1 3 6 7 8 9 10 13 14,68.2 a.u.
2'F-ANA at 2 4 5 6 7 8 10 11 15,55.7 a.u.
2'F-ANA at 1 2 4 5 7 9 10 11 13 14 15,48.7 a.u.

# Sample 2 — target: CCND1, cyclin fold, Cln2 fusion (human); method: yeast growth competition, sequencing; medium: yeast; notes: weak parent motif; baseline: not given; reading: higher = stronger binding
# Parent: E2F3 docking peptide (human); PPAKRRLELGESG; partner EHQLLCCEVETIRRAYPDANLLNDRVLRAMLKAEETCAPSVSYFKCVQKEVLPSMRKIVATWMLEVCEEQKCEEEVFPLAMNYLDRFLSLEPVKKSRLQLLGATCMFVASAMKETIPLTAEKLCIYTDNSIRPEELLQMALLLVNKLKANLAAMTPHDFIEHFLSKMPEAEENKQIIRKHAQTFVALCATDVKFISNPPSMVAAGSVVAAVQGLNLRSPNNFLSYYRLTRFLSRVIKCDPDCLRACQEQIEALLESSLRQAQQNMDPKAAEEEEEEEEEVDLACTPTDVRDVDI
Substitution,normalised enrichment score
PAAKRRLELGESG [P2A],-0.0242
PPAKRRLELAESG [G10A],0.457
PPAKRRLEAGESG [L9A],0.659
PPAKRRLELGASG [E11A],0.492
PPAKKRLEFGESG [R5K L9F],0.573
PPAKRALELGESG [R6A],0.0991
PPAKRRLALGESG [E8A],-0.114

# Sample 3 — method: protein-binding microarray; molecule type: double-stranded DNA, one strand shown; medium: in vitro; concentration: 2200 nM top; notes: 60-bp whole probe; added: salmon DNA 0.4 mg/ml; baseline: random background probes; reading: higher = stronger binding; all sequences stand within: GCCTAGCAC … GTCTTGATTCGCTTGACGCTGCTG
# Target: Interferon regulatory factor 7, full length, phosphomimetic (IRF7, Homo sapiens, UniProt Q92985, residues 1-503, S471D/S472D/S475D/S476D/S477D/S483D/S484D/S487D)
# Target sequence (chain): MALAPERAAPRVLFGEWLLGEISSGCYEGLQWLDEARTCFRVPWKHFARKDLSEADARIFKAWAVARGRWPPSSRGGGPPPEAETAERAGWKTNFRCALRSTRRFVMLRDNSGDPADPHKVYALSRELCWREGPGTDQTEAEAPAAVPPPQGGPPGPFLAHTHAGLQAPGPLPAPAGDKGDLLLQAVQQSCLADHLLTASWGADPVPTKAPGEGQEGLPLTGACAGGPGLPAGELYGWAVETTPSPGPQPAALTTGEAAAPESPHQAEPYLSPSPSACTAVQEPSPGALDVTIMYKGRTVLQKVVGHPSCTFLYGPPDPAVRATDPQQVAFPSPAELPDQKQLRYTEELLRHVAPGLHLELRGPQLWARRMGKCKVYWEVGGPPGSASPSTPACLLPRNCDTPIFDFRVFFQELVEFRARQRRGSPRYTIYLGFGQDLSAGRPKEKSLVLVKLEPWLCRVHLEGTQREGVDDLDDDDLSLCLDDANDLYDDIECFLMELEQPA
Strand,fitted relative affinity [z-score]
TTAGGACTGAGGACTGGGTTAGTGCTA,-0.828
ATGTTTGTCACTCTCAGAATGTGCTAG,1.64
TCACTTCACCTCTCTGTCACTGTGCTA,2.72
TTAGATTTCAATTTCGATTAGTGCTAG,3.79
CGTAAGCAAAAATGATTGGTGTGCTAG,-0.431
GACGGTTTCGGTTCCGGGCCGTGCTAG,10.9
GTAGGTATCCTTTTCCTTTAGTGCTAG,1.71
GACGGTCTCCTTATTCTGACGTGCTAG,1.11
TTAGGTTACGACTTTCGGTTAGTGCTA,5.82
TCAAGTATGTTCCTTATTACTGTGCTA,1.18
TTAGGTAACGGTCTCGGTTAGTGCTAG,0.114
GACGGTTTCGGGACCGGGGACGTGCTA,3.3
TTCATTCCTGATCTCTGGTCGTGCTAG,1.8
GACGGACTGGACACTGGGGATGTGCTA,-0.754
TCATGAGTCCCTATCTCACTGTGCTAG,1.03
GTCACATTGCACAATCTTAATGTGCTA,1.11
GACGAACTGGGGACTGGAGACGTGCTA,-0.291
TCACCTACAGGTTCTCTGACTGTGCTA,0.726

# Sample 4 — method: DHFR PCA, deep sequencing; medium: yeast; added: (+)-ABA 0 µM; baseline: wild-type fitted maximum; reading: higher = stronger binding
# Target: ABI1, truncated, D143A, DHFR fusion (Arabidopsis thaliana)
# Notes: methotrexate growth selection, single substitutions
# Parent: PYL1, truncated, DHFR fusion (Arabidopsis thaliana); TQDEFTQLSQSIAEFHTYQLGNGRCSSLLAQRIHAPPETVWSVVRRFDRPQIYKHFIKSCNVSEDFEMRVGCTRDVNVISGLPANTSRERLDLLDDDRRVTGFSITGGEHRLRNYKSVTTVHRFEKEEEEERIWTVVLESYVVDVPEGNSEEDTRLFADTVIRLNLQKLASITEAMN; partner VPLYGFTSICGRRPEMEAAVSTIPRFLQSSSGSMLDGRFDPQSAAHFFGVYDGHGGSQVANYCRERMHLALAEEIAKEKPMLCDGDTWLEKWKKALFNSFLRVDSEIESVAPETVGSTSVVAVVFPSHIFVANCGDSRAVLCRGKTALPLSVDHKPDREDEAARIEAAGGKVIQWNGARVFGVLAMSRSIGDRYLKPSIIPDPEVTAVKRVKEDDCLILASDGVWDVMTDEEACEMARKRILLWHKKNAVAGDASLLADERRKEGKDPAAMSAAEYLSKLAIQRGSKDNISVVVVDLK
Substitution,relative binding score [%]
V161A,5.54
G108Y,-1.28
D96C,-6.85
L112D,4.33
S80D,9.83
T86P,6.82
R163S,14.7
K168E,-1.06
R45P,0.234
R111V,9.14
A13E,36
S63H,4.09
F66K,3.17
P146Y,-5.96

# Sample 5 — target: CEP164, C-terminal peptide (human); method: DHFR complementation, deep sequencing; medium: yeast; baseline: wild type; reading: higher = weaker binding
# Notes: single substitutions, model-inferred values
# Parent: PDZK1, PDZ domain 2 (human); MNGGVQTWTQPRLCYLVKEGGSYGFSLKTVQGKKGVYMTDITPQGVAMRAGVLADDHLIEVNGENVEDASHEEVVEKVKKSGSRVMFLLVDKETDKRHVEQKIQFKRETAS; partner HNRVKVYRF
Substitution,binding free energy change [kcal/mol]
Q101M,-0.0734
S81W,0.825
A50D,1.32
G35Y,0.74
F25S,0.782
K102C,-0.0486
V78F,2.54
K33D,0.0809
V61P,0.844
K79N,0.554
H98S,-0.0262
V46T,0.327
E67C,0.128
N2E,-0.166
V17S,0.128

# Sample 6 — method: protein binding microarray; molecule type: double-stranded DNA, one strand shown; medium: in vitro; concentration: not given; baseline: not given; reading: higher = stronger binding
# Target: Histone acetyltransferase KAT6A, winged helix 2, GST fusion (KAT6A, Homo sapiens, UniProt Q92794, residues 85-181)
# Notes: 8-mer, flanks averaged, mean of 2 arrays, mostly near background
# Construct (chain): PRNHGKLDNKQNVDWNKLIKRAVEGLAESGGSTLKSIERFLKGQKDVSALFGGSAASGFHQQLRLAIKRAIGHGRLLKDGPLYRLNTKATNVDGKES
Strand,E-score
ATAGGCCA,-0.184
GTGTGGGA,0.0646
ACGTACGA,-0.351
AAAAGGTA,-0.122
CAGTTCAG,-0.134
GCGGCTCA,0.134
CTCTATTC,0.0285
AGCGTAGC,0.157
AGCGCTGG,0.0806
CTGCGATA,0.135
CGGTAGCC,0.143
AGACAAAG,-0.0112
GGATCTTA,0.0638
ATGCGGCA,0.00047
AAAAACCC,0.0498
AGTCTTAG,-0.171

# Further values, each from its own experiment
Molecule,target,test,system,setting,scale,measurement,value
"PhoQ, residues 284 288 289 292 302 303 GASLAW","PhoP, residues 12 14 15 18 19 NMSSL (Escherichia coli, UniProt P23836)","Sort-seq, measured: YFP reporter",E. coli,"PhoQ-PhoP variant library, added: 10 µM Mg2+","baseline: high Mg2+ state, higher = stronger signaling",fold induction,3.82

# A few entries again (sample 6):
Strand,E-score
AGCGCTGG,0.0806
CTGCGATA,0.135
CGGTAGCC,0.143
AGACAAAG,-0.0112
GGATCTTA,0.0638
